Assay results gathered from unrelated publications.
Compare with care: the assays were run in different laboratories. ± marks the error that the study gave.

SMILES | test | system | conditions | how to read | endpoint | value
COc1ccc2c(c1)c(CC(=O)OCC(=O)OC(C)(C)C)c(C)n2C(=O)c1ccc(Cl)cc1 | hot plate test | BALB/c mice | 75 mg/kg, 120 min | – | latency of nociceptive response | 14 ± 1.04 s
CSCC[C@@H]1NC(=O)[C@H](CCCCN)NC(=O)[C@H]([C@@H](C)O)NC(=O)[C@H](CCCCN)NC(=O)[C@H](CC(C)C)NC(=O)[C@H](CCCCN)NC(=O)[C@H](CCCNC(=N)N)NC(=O)[C@@H]2CSSC[C@@H]3NC(=O)[C@@H]4CCCN4C(=O)[C@H](C(C)C)NC(=O)[C@H](CCC(N)=O)NC(=O)[C@H](CCC(N)=O)NC(=O)CNC(=O)[C@H](CC(C)C)NC(=O)[C@@H]4CSSC[C@H](NC(=O)[C@H]([C@@H](C)O)NC(=O)[C@H](C)NC(=O)[C@H](CSSC[C@@H](C(=O)N[C@@H](CO)C(=O)N[C@@H](CCCNC(=N)N)C(=O)N[C@H](C(N)=O)[C@@H](C)O)NC(=O)[C@@H]5CCCN5C(=O)[C@H](CC(N)=O)NC1=O)NC(=O)[C@@H]1CCCN1C(=O)[C@H](CC(=O)O)NC(=O)[C@H](CSSC[C@H](NC(=O)[C@H](CCCNC(=N)N)NC(=O)[C@H](CCCNC(=N)N)NC(=O)[C@H](CCCCN)NC(=O)[C@@H](N)CCCCN)C(=O)N[C@@H](C(C)C)C(=O)N[C@@H](CCCNC(=N)N)C(=O)N[C@@H](CC(C)C)C(=O)N[C@@H](Cc1c[nH]cn1)C(=O)N[C@@H](CCC(=O)O)C(=O)N[C@@H](CO)C(=O)N4)NC3=O)C(=O)N[C@@H](Cc1ccc(O)cc1)C(=O)N[C@H]1CSSC[C@H](NC(=O)[C@H](Cc3ccccc3)NC(=O)[C@H](C)NC(=O)[C@H](CC(N)=O)NC(=O)[C@H](Cc3ccccc3)NC(=O)[C@H](Cc3ccccc3)NC(=O)[C@H](CCCNC(=N)N)NC1=O)C(=O)N[C@@H](Cc1ccc(O)cc1)C(=O)N2 | – | Long-Evans rat, male | intracerebroventricular, 1.0 nmol in 1.0 µL, 24 h, non-cumulative | relative to: saline | food intake | 118 ± 8.3 % above saline
C=C(c1ccc(C(=O)O)c(F)c1)c1cc2c(cc1C)C(C)(C)C=CC2(C)C | RNA sequencing, measured: Scd1 | rat, brain | dose not given, 24 h | relative to: vehicle | log2 fold change | -1.95
COc1cc(CN2CCN(c3ccc(C)cc3)CC2)c2cc3[n+](cc2c1O)CCc1cc2c(cc1-3)OCO2 | ABTS scavenging, absorbance | – | 10 min | – | IC50 | 13 µg/mL
Fc1ccc2[nH]c(-c3ccco3)nc2c1 | ABTS scavenging, absorbance | – | – | – | IC50 | 1.4 µM
COc1ccc2c(c1)c(CC(=O)OCOC(C)=O)c(C)n2C(=O)c1ccc(Cl)cc1 | hot plate test | BALB/c mice | 75 mg/kg, 60 min | – | latency of nociceptive response | 16.1 ± 1.71 s
CN1CCC(N[C@@H]2CCc3[nH]c4c(C(N)=O)ccc(-c5ccccc5Cl)c4c3C2)CC1 | – | BALB/c nude mouse RKO xenograft | oral, 20 mg/kg daily | – | regressing tumours | 64%
Cc1cccc(O[C@H]2CCC[C@@H](C(C)CNCc3ccncc3)C2)c1 (relative stereo) | – | APP/PS1 mouse | dose not given, chronic treatment | – | plasma TNFα level | decreased
COc1c2c(cc3oc(C)cc(=O)c13)O[C@H](C(C)(C)O[C@@H]1O[C@H](CO)[C@@H](O)[C@H](O)[C@H]1O)C2 | analgesia | mouse | oral, 2 mg/kg, 0.5 h | – | hot plate latency | 11.4 ± 2.26 s
Cc1ccc(-c2oc3ccccc3c(=O)c2OCc2ccccc2)cc1 | – | diabetic rat | 7.5 mg/kg, day 7, p-nitrophenyl β-glucoside induced | – | blood glucose | 330 ± 3.96 mg/dL
NS(=O)(=O)NCC(F)(F)c1ccccc1F | MES seizures | mouse | intraperitoneal | – | ED50 | 50 mg/kg
CN(C)C(=O)c1cncc(N2Cc3cn(Cc4ccc(F)cc4)nc3C2)n1 | measured: EAE clinical score | mice EAE model | ip, 5 mg/kg daily, 264 h, unit not given | relative to: vehicle | effect size d | -2.21
COc1ccc(-c2oc3ccccc3c(=O)c2OCc2ccccc2)cc1 | – | diabetic rat | 5 mg/kg, day 21, p-nitrophenyl β-glucoside induced | – | blood glucose | 149 ± 4.83 mg/dL
COc1ccc(S(=O)(=O)N2CCc3ccccc3C2)cc1N1CCN(C(=O)c2ccc(F)cc2C(F)(F)F)CC1 | – | 6-OHDA lesioned rats | 0.3 µg/24 h, 12 weeks post lesion | relative to: intact side | DAT-ir cells in SNpc | 13.2 ± 2.1%
C=C(c1ncc(C(=O)O)cn1)c1cc2c(cc1C)C(C)(C)CCC2(C)C | RNA sequencing, measured: Emr4 mRNA | rat, brain | dose not given, 24 h, single dose | relative to: vehicle | log2 fold change | 0.64
O=c1c(OCc2ccccc2)c(-c2cccc([N+](=O)[O-])c2)oc2ccccc12 | – | diabetic rat | 7.5 mg/kg, day 28, p-nitrophenyl β-glucoside induced | – | blood glucose | 148 ± 3.98 mg/dL
COc1ccc2c(c1OC)C(C(Cl)(Cl)Cl)N1CCc3cc4c(cc3C1=C2)OCO4 (stereo not shown) | – | rat, STZ-induced diabetic, serum | oral, 12 mg/kg, day 28 | – | urea | 43.2 ± 1.66 mg/dL
Cc1cc(O)cc(O)c1C(=O)c1c2c3c(c(O)cc(C)c3oc1=O)C(=O)c1c(O)cc(O)cc1-2 | – | Bel-7402 xenograft, mouse | intraperitoneal, 28 mg/kg, day 21 | – | T/C | 48.8%
CC[C@H]1[C@@H](O)[C@@H]2[C@H](CC[C@]3(C)[C@@H]([C@H](C)CCOS(=O)(=O)[O-])CC[C@@H]23)[C@@]2(C)CC[C@@H](O)C[C@@H]12.[Na+] | immunohistochemistry, measured: collagen 1a1 | ob/ob NASH mouse model, liver | 10 mg/kg, 16 weeks | – | fractional area | 5 ± 0.3%

SMILES | test | system | conditions | how to read | endpoint | value
O=C(NCc1cc(F)cc(F)c1)[C@@]1(O)CCN(c2ccc3[nH]ccc3c2)C1=O | – | CAKI-1 xenograft, mouse | oral, 50 mg/kg twice daily | – | T/C | 16%
CCOc1ccc(C[C@@H]2NC(=O)[C@@H](N)CSSC[C@@H](C(=O)N3CCC[C@H]3C(=O)N[C@@H](CC(C)C)C(=O)NCC(N)=O)NC(=O)[C@H](CC(N)=O)NC(=O)[C@H](CCC(N)=O)NC(=O)[C@H]([C@@H](C)CC)NC2=O)cc1 | antagonist | Bufo marinus urinary bladder | with: oxytocin | – | pA2 | 6.85
CSCC[C@@H]1NC(=O)[C@H](C)NC(=O)[C@H]([C@@H](C)O)NC(=O)CNC(=O)[C@H](CC(C)C)NC(=O)[C@H](CCC(N)=O)NC(=O)[C@H](CCCNC(=N)N)NC(=O)[C@@H]2CSSC[C@@H]3NC(=O)[C@@H]4CCCN4C(=O)[C@H](C(C)C)NC(=O)[C@H](CCC(N)=O)NC(=O)[C@H](CCC(N)=O)NC(=O)CNC(=O)[C@H](CC(C)C)NC(=O)[C@@H]4CSSC[C@H](NC(=O)[C@H]([C@@H](C)O)NC(=O)[C@H](C)NC(=O)[C@H](CSSC[C@@H](C(=O)N[C@@H](CO)C(=O)N[C@@H](CCC(N)=O)C(=O)N[C@H](C(N)=O)[C@@H](C)O)NC(=O)[C@@H]5CCCN5C(=O)[C@H](CC(N)=O)NC1=O)NC(=O)[C@@H]1CCCN1C(=O)[C@H](CC(=O)O)NC(=O)[C@H](CSSC[C@H](NC(=O)[C@H](CCCNC(=N)N)NC(=O)[C@H](CCCNC(=N)N)NC(=O)[C@H](CO)NC(=O)[C@@H](N)CO)C(=O)N[C@@H](C(C)C)C(=O)N[C@@H](CCCNC(=N)N)C(=O)N[C@@H](CC(C)C)C(=O)N[C@@H](Cc1c[nH]cn1)C(=O)N[C@@H](CCC(=O)O)C(=O)N[C@@H](CO)C(=O)N4)NC3=O)C(=O)N[C@@H](Cc1ccc(O)cc1)C(=O)N[C@H]1CSSC[C@H](NC(=O)[C@H](Cc3ccccc3)NC(=O)[C@H](C)NC(=O)[C@H](CC(N)=O)NC(=O)[C@H](Cc3ccccc3)NC(=O)[C@H](Cc3ccccc3)NC(=O)[C@H](CCCNC(=N)N)NC1=O)C(=O)N[C@@H](Cc1ccc(O)cc1)C(=O)N2 | – | male Long-Evans rats | intracerebroventricular, 1.0 nmol, day 5 | relative to: saline | food intake | 14.1 ± 2.3 % above saline
O=c1cc(-c2ccc(O)cc2)oc2cc3oc4cc(O)c(O)cc4c3c(O)c12 | DPPH scavenging, absorbance | – | – | – | EC50 | > 20000 µM
CN(C)c1ccc(-c2oc3ccccc3c(=O)c2OCc2ccccc2)cc1 | – | diabetic rat | 5 mg/kg, day 7, p-nitrophenyl β-glucoside induced | – | blood glucose | 331 ± 4.73 mg/dL
CCCCCCCCC=CCCCCCCCC(=O)OCC1OC(n2ccc(N)nc2=O)C(F)(F)C1O (stereo not shown) | – | female nude mouse, colon xenograft, patient-derived colon tumour | oral, 50 mg/kg, dosed days 1 and 8 | relative to: saline control | optimal tumour volume T/C | 22%
O=C1/C(=C/c2ccccc2)Oc2cc(O)c(-c3ccc(O)c(O)c3)c(O)c21 | DPPH scavenging, absorbance | – | – | – | EC50 | 130 µM
CC(=O)N[C@@H](CC(N)=O)C(=O)NCC(=O)N[C@@H](C)C(=O)N[C@@H](C)C(N)=O | 1H NMR | sodium phosphate buffer 50 mM | pH 6.3, 55 °C | – | rate constant succinimide to β-Asp | 0.324 h⁻¹
COc1ccc(C2CC(c3ccc(C)cc3)=Nc3ccccc3S2)cc1OC (stereo not shown) | – | Wistar rat, STZ-induced diabetes | oral, 20 mg/kg once daily, day 28 | – | blood glucose | 104 mg/dL
O=c1c(OCc2ccccc2)c(-c2ccc(Cl)cc2)oc2ccccc12 | – | diabetic rat | 5 mg/kg, day 7, p-nitrophenyl β-glucoside induced | – | blood glucose | 335 ± 4.81 mg/dL
O=C(NCCN1C(=O)C=CC1=O)[O][Pt-2]12([O]C(=O)NCCN3C(=O)C=CC3=O)([NH2+][C@@H]3CCCC[C@H]3[NH2+]1)[O]C(=O)C(=O)[O]2 | immunohistochemistry | BALB/c mouse CT26 allograft, tumour | dose not given, day 12 | – | cleaved caspase-3 positive cells | 30%
COc1ccc(C2CC(c3ccc(C)cc3)=Nc3ccccc3S2)cc1 (stereo not shown) | – | Wistar rat, STZ-induced diabetes, serum | 20 mg/kg, 28 days | – | alkaline phosphatase | 198 IU/L
CCc1nnc(NS(=O)(=O)c2ccc(NC(=S)NC(=O)/C=C/c3ccc(F)cc3)cc2)s1 | cell proliferation | athymic nude mice, SK-N-AS xenograft, tumour | i.p., 10 mg/kg daily, 18 days | – | reduction of Ki-67 staining | 25%
Fc1ccc(CSc2nnc(C34CC5CC(CC(C5)C3)C4)n2-c2ccccc2)cc1 | paw oedema | rat | intraperitoneal, 40 mg/kg | – | inhibition in vivo | 27%
O=C1c2c(O)cc3oc4cc(O)c(O)cc4c3c2OC1Cc1ccc(O)c(O)c1 (stereo not shown) | DPPH scavenging, absorbance | – | – | – | EC50 | 50 µM
Cc1cc2nc(-c3cc4ccccc4nc3Cl)[nH]c2cc1C | – | mouse HepG2 xenograft | 20 mg/kg, day 41 | – | T/C tumor increment | 19.5%
O=c1c(OCc2ccccc2)c(-c2ccc([N+](=O)[O-])cc2)oc2ccccc12 | – | diabetic rat | 5 mg/kg, day 7, p-nitrophenyl β-glucoside induced | – | blood glucose | 339 ± 4.9 mg/dL
Cc1ccc(C2=C(c3ccc([18F])cc3)C(=O)OC2(C)C)cc1 | PET/CT | mouse, SK-OV-3/COX-1 peritoneal tumour | retro-orbital, 5 min | – | normalized tumour uptake | 25 ± 6

Repeated from above:
SMILES | test | system | conditions | how to read | endpoint | value
CCOc1ccc(C[C@@H]2NC(=O)[C@@H](N)CSSC[C@@H](C(=O)N3CCC[C@H]3C(=O)N[C@@H](CC(C)C)C(=O)NCC(N)=O)NC(=O)[C@H](CC(N)=O)NC(=O)[C@H](CCC(N)=O)NC(=O)[C@H]([C@@H](C)CC)NC2=O)cc1 | antagonist | Bufo marinus urinary bladder | with: oxytocin | – | pA2 | 6.85
CSCC[C@@H]1NC(=O)[C@H](C)NC(=O)[C@H]([C@@H](C)O)NC(=O)CNC(=O)[C@H](CC(C)C)NC(=O)[C@H](CCC(N)=O)NC(=O)[C@H](CCCNC(=N)N)NC(=O)[C@@H]2CSSC[C@@H]3NC(=O)[C@@H]4CCCN4C(=O)[C@H](C(C)C)NC(=O)[C@H](CCC(N)=O)NC(=O)[C@H](CCC(N)=O)NC(=O)CNC(=O)[C@H](CC(C)C)NC(=O)[C@@H]4CSSC[C@H](NC(=O)[C@H]([C@@H](C)O)NC(=O)[C@H](C)NC(=O)[C@H](CSSC[C@@H](C(=O)N[C@@H](CO)C(=O)N[C@@H](CCC(N)=O)C(=O)N[C@H](C(N)=O)[C@@H](C)O)NC(=O)[C@@H]5CCCN5C(=O)[C@H](CC(N)=O)NC1=O)NC(=O)[C@@H]1CCCN1C(=O)[C@H](CC(=O)O)NC(=O)[C@H](CSSC[C@H](NC(=O)[C@H](CCCNC(=N)N)NC(=O)[C@H](CCCNC(=N)N)NC(=O)[C@H](CO)NC(=O)[C@@H](N)CO)C(=O)N[C@@H](C(C)C)C(=O)N[C@@H](CCCNC(=N)N)C(=O)N[C@@H](CC(C)C)C(=O)N[C@@H](Cc1c[nH]cn1)C(=O)N[C@@H](CCC(=O)O)C(=O)N[C@@H](CO)C(=O)N4)NC3=O)C(=O)N[C@@H](Cc1ccc(O)cc1)C(=O)N[C@H]1CSSC[C@H](NC(=O)[C@H](Cc3ccccc3)NC(=O)[C@H](C)NC(=O)[C@H](CC(N)=O)NC(=O)[C@H](Cc3ccccc3)NC(=O)[C@H](Cc3ccccc3)NC(=O)[C@H](CCCNC(=N)N)NC1=O)C(=O)N[C@@H](Cc1ccc(O)cc1)C(=O)N2 | – | male Long-Evans rats | intracerebroventricular, 1.0 nmol, day 5 | relative to: saline | food intake | 14.1 ± 2.3 % above saline
O=c1cc(-c2ccc(O)cc2)oc2cc3oc4cc(O)c(O)cc4c3c(O)c12 | DPPH scavenging, absorbance | – | – | – | EC50 | > 20000 µM
CN(C)c1ccc(-c2oc3ccccc3c(=O)c2OCc2ccccc2)cc1 | – | diabetic rat | 5 mg/kg, day 7, p-nitrophenyl β-glucoside induced | – | blood glucose | 331 ± 4.73 mg/dL
